{"data": "Measurements of several laboratories", "target": "Proteinase K (PROK, Engyodontium album, UniProt P06873)", "note": "Protocols differ between the studies behind these lines. ± gives the spread as reported."}
{"Structure (SMILES)": "CC(=O)N[C@H]1[C@@H](O[C@H](C)[C@H](NC(=O)[C@H](CC(=O)O)NC(=O)[C@@H]2CCCN2C(=O)[C@H](C)NC(=O)C[C@H](CO)NC(=O)[C@@H](NC(=O)[C@@H](NC(=O)CCNC(=O)[C@H](Cc2c[nH]cn2)NC(=O)[C@H](C)NC(=O)[C@@H](N)CS)C(C)C)[C@@H](C)O)C(=O)N[C@@H](CCCNC(=N)N)C(=O)N2CCC[C@H]2C(=O)N[C@@H](C)C(=O)N2CCC[C@H]2C(=O)NCCC(=O)N[C@@H](CO)C(=O)N[C@H](C(=O)N[C@@H](C)C(=O)N2CCC[C@H]2CC(=O)N2CCC[C@H]2C(N)=O)[C@@H](C)O)O[C@H](CO)[C@H](O)[C@@H]1O", "test": "UPLC", "test system": "DPBS", "conditions": "200 µM, added: proteinase K 5 µg/mL", "quantity": "half-life", "value": "2.07 h"}
{"Structure (SMILES)": "CC(C)C[C@H](NC(=O)[C@H](CCCCN)NC(=O)[C@H](CCCNC(=N)N)NC(=O)[C@@H](CC(C)C)NC(=O)[C@H](Cc1ccc(C(C)(C)C)cc1)NC(=O)[C@H](CC(=O)O)NC(=O)[C@H](CCCCN)NC(=O)[C@@H](CC(C)C)NC(=O)[C@H](CCCNC(=N)N)NC(=O)[C@H](CCC(N)=O)NC(=O)[C@@H](NC(=O)[C@@H](CC(C)C)NC(=O)[C@H](CCCNC(=N)N)NC(=O)[C@H](CCCCN)NC(=O)[C@H](Cc1ccc(C(C)(C)C)cc1)NC(=O)CN)C(C)C)C(=O)N[C@H](C(N)=O)C(C)C", "test": "substrate, SDS-PAGE", "conditions": "24 h, pH 7.4, 37 °C", "quantity": "proteolytic stability", "value": "stable"}
{"Structure (SMILES)": "Cc1cn(CC(=O)N[C@@H](Cc2ccccc2)C(=O)N[C@@H](CCCNC(=N)N)C(=O)NCC(=O)N[C@@H](CC(=O)O)C(=O)O)c(=O)[nH]c1=O", "test": "substrate", "conditions": "concentration not given", "quantity": "time to complete hydrolysis", "value": "4 h"}
{"Structure (SMILES)": "CC[C@H](C)[C@H](NC(=O)[C@H](Cc1c[nH]cn1)NC(=O)[C@H](CC(N)=O)NC(=O)[C@H](Cc1ccccc1)NC(=O)[C@H](Cc1ccc(O)cc1)NC(=O)[C@H](Cc1ccc(O)cc1)NC(=O)[C@@H](NC(=O)[C@H](CCCNC(=N)N)NC(=O)CNC(=O)[C@H](CO)NC(=O)[C@H](CO)NC(=O)[C@H](CCCNC(=N)N)NC(=O)[C@H](CO)NC(=O)[C@H](CCSC)NC(=O)[C@H](CCCNC(=N)N)NC(=O)[C@H](CCCCN)NC(=O)[C@H](CCC(=O)O)NC(=O)[C@H](Cc1c[nH]c2ccccc12)NC(=O)CNC(=O)[C@@H]1CCCN1C(=O)[C@@H]1CCCN1C(=O)[C@H](CC(C)C)NC(=O)[C@@H](N)CCCCN)C(C)C)C(=O)N[C@@H](CCn1cc(COCCOCCOCCOC)nn1)C(=O)N[C@@H](CC(N)=O)C(=O)N[C@@H](C)C(=O)N[C@@H](CO)C(=O)N[C@@H](CCC(N)=O)C(=O)N[C@@H](Cc1ccccc1)C(=O)N[C@@H](CCC(=O)O)C(=O)N[C@@H](CCCNC(=N)N)C(=O)N1CCC[C@H]1C(=O)N[C@@H](CO)C(=O)NCC(=O)O", "test": "proteolysis, substrate, HPLC", "conditions": "room temperature", "how to read": "reference: PEGylated over non-PEGylated variant, negative = more stable", "quantity": "ln rate constant ratio", "value": "-0.3 ± 0.3"}
{"Structure (SMILES)": "CC(=O)N[C@H]1[C@@H](O[C@H](C)[C@H](NC(=O)[C@H](CC(=O)O)NC(=O)[C@@H]2CCCN2C(=O)[C@H](C)NC(=O)C[C@H](CO)NC(=O)[C@@H](NC(=O)[C@@H](NC(=O)CCNC(=O)[C@H](Cc2c[nH]cn2)NC(=O)[C@H](C)NC(=O)[C@@H](N)CS)C(C)C)[C@@H](C)O)C(=O)N[C@@H](CCCNC(=N)N)C(=O)N2CCC[C@H]2C(=O)N[C@@H](C)C(=O)N2CCC[C@H]2CC(=O)NCC(=O)N[C@@H](CO)C(=O)N[C@H](C(=O)N[C@@H](C)CC(=O)N2CCC[C@H]2C(=O)N2CCC[C@H]2C(N)=O)[C@@H](C)O)O[C@H](CO)[C@H](O)[C@@H]1O", "test": "UPLC", "test system": "DPBS", "conditions": "200 µM, added: proteinase K 5 µg/mL", "quantity": "half-life", "value": "1.97 h"}
{"Structure (SMILES)": "CCCC[C@@H]1NC(=O)[C@H](C(C)C)NC(=O)[C@H](Cc2c[nH]cn2)NC(=O)[C@H]([C@@H](C)CC)NC(=O)[C@H](CC(=O)O)NC(=O)[C@@H](NC(=O)[C@H](CC(N)=O)NC(=O)[C@@H]2CCCN2C(=O)[C@H](CCC(=O)O)NC(=O)[C@@H](N)C(C)C)CSSC[C@@H](C(=O)N[C@@H](Cc2ccccc2)C(=O)N[C@@H](CCC(=O)O)C(=O)N[C@@H](CCCNC(=N)N)C(=O)N[C@@H](CC(C)C)C(N)=O)NC(=O)[C@H](CCC(=O)O)NC(=O)[C@H](Cc2c[nH]c3ccccc23)NC(=O)[C@H](CCC(=O)O)NC(=O)[C@H](Cc2c[nH]c3ccccc23)NC1=O", "test": "proteolytic stability", "test system": "TBS", "conditions": "50 µM, pH 7.5, 5% DMSO, added: proteinase K 10 µg/mL", "quantity": "half-life", "value": "0.0267 h"}
{"Structure (SMILES)": "Cc1ccc(C[C@H](NC(=O)CN)C(=O)N[C@@H](CCCCN)C(=O)N[C@@H](CCCNC(=N)N)C(=O)N[C@H](CC(C)C)C(=O)N[C@H](C(=O)N[C@@H](CCC(N)=O)C(=O)N[C@@H](CCCNC(=N)N)C(=O)N[C@H](CC(C)C)C(=O)N[C@@H](CCCCN)C(=O)N[C@@H](CC(=O)O)C(=O)N[C@@H](Cc2c[nH]c3ccccc23)C(=O)N[C@H](CC(C)C)C(=O)N[C@@H](CCCNC(=N)N)C(=O)N[C@@H](CCCCN)C(=O)N[C@@H](CC(C)C)C(=O)N[C@H](C(N)=O)C(C)C)C(C)C)cc1", "test": "substrate, SDS-PAGE", "conditions": "24 h, pH 7.4, 37 °C", "quantity": "proteolytic stability", "value": "stable"}
{"Structure (SMILES)": "CC[C@H](C)[C@H](NC(=O)[C@H](Cc1c[nH]cn1)NC(=O)[C@H](CC(N)=O)NC(=O)[C@H](Cc1ccccc1)NC(=O)[C@H](Cc1ccc(O)cc1)NC(=O)[C@H](CCC(=O)NCCOCCOCCOCCOC)NC(=O)[C@@H](NC(=O)[C@H](CCCNC(=N)N)NC(=O)CNC(=O)[C@H](CO)NC(=O)[C@H](CO)NC(=O)[C@H](CCCNC(=N)N)NC(=O)[C@H](CO)NC(=O)[C@H](CCSC)NC(=O)[C@H](CCCNC(=N)N)NC(=O)[C@H](CCCCN)NC(=O)[C@H](CCC(=O)O)NC(=O)[C@H](Cc1c[nH]c2ccccc12)NC(=O)CNC(=O)[C@@H]1CCCN1C(=O)[C@@H]1CCCN1C(=O)[C@H](CC(C)C)NC(=O)[C@@H](N)CCCCN)C(C)C)C(=O)N[C@H](C(=O)N[C@@H](CC(N)=O)C(=O)N[C@@H](C)C(=O)N[C@@H](CO)C(=O)N[C@@H](CCC(N)=O)C(=O)N[C@@H](Cc1ccccc1)C(=O)N[C@@H](CCC(=O)O)C(=O)N[C@@H](CCCNC(=N)N)C(=O)N1CCC[C@H]1C(=O)N[C@@H](CO)C(=O)NCC(=O)O)[C@@H](C)O", "test": "proteolysis, substrate, HPLC", "conditions": "room temperature", "how to read": "reference: PEGylated over non-PEGylated variant, negative = more stable", "quantity": "ln rate constant ratio", "value": "0.1 ± 0.3"}
{"Structure (SMILES)": "CC(C)C[C@H](NC(=O)[C@H](C)NC(=O)[C@H](CC(N)=O)NC(=O)[C@H](CCC(=O)O)NC(=O)[C@@H](N)CCCCN)C(=O)N[C@@H](CC(C)C)C(=O)N[C@@H](CCCNC(=N)N)C(=O)N[C@@H](Cc1ccc(O)cc1)C(=O)N[C@@H](CC(C)C)C(=O)N[C@@H](CC(C)C)C(=O)N[C@@H](CC(=O)O)C(=O)N[C@@H](CCCCN)C(=O)N[C@@H](CC(=O)O)C(N)=O", "test": "substrate, HPLC", "conditions": "0.5 mM, pH 7.4, 37 °C, added: proteinase K 0.0005%", "quantity": "half-life", "value": "3 h"}
{"Structure (SMILES)": "CC[C@H](C)[C@H](NC(=O)[C@H](Cc1c[nH]cn1)NC(=O)[C@H](CC(N)=O)NC(=O)[C@H](Cc1ccccc1)NC(=O)[C@H](Cc1ccc(O)cc1)NC(=O)[C@H](Cc1ccc(OCc2cn(CCOCCOCCOCCOC)nn2)cc1)NC(=O)[C@@H](NC(=O)[C@H](CCCNC(=N)N)NC(=O)CNC(=O)[C@H](CO)NC(=O)[C@H](CO)NC(=O)[C@H](CCCNC(=N)N)NC(=O)[C@H](CO)NC(=O)[C@H](CCSC)NC(=O)[C@H](CCCNC(=N)N)NC(=O)[C@H](CCCCN)NC(=O)[C@H](CCC(=O)O)NC(=O)[C@H](Cc1c[nH]c2ccccc12)NC(=O)CNC(=O)[C@@H]1CCCN1C(=O)[C@@H]1CCCN1C(=O)[C@H](CC(C)C)NC(=O)[C@@H](N)CCCCN)C(C)C)C(=O)N[C@H](C(=O)N[C@@H](CC(N)=O)C(=O)N[C@@H](C)C(=O)N[C@@H](CO)C(=O)N[C@@H](CCC(N)=O)C(=O)N[C@@H](Cc1ccccc1)C(=O)N[C@@H](CCC(=O)O)C(=O)N[C@@H](CCCNC(=N)N)C(=O)N1CCC[C@H]1C(=O)N[C@@H](CO)C(=O)NCC(=O)O)[C@@H](C)O", "test": "proteolysis, substrate, HPLC", "conditions": "room temperature", "how to read": "reference: PEGylated over non-PEGylated variant, negative = more stable", "quantity": "ln rate constant ratio", "value": "-0.3 ± 0.2"}
{"Structure (SMILES)": "CC(C)C[C@H](NC(=O)[C@H](CCCCN)NC(=O)[C@H](CCCNC(=N)N)NC(=O)[C@@H](CC(C)C)NC(=O)[C@H](Cc1ccc(C(C)(C)C)cc1)NC(=O)[C@H](CC(=O)O)NC(=O)[C@H](CCCCN)NC(=O)[C@@H](CC(C)C)NC(=O)[C@H](CCCNC(=N)N)NC(=O)[C@H](CCC(N)=O)NC(=O)[C@@H](NC(=O)[C@@H](CC(C)C)NC(=O)[C@H](CCCNC(=N)N)NC(=O)[C@H](CCCCN)NC(=O)[C@H](Cc1ccc(-c2ccccc2)cc1)NC(=O)CN)C(C)C)C(=O)N[C@H](C(N)=O)C(C)C", "test": "substrate, SDS-PAGE", "conditions": "24 h, pH 7.4, 37 °C", "quantity": "proteolytic stability", "value": "stable"}
